# Earlier results, collected from citations in different studies.
# Each line is one published result; not all experiments were run side by side.
Compound,tested on,test,system,setting,quantity,result
CCCCCCCCCC(=O)CC(=O)NC1CCCCC1=O (stereo not drawn),Pseudomonas aeruginosa,pyocyanin production,PAO-JP2,50 µM,inhibition,35%
CC(=O)OC1C(=O)C2(C)C(O)CC3OCC3(OC(C)=O)C2C(OC(=O)c2cccc(OC(F)(F)F)c2)C2(O)CC(OC(=O)C(O)C(C=C(C)C)NC(=O)OC(C)(C)C)C(C)=C1C2(C)C (stereo not drawn),MCF7,cytotoxicity,,,IC50,0.98 nM
COc1cc2c(cc1-n1ccnc1)C[C@H]1[C@H]3CCCC[C@@]23CCN1C,,,human liver microsomes,,intrinsic clearance,15.2 µL/min/mg protein
CC[C@H](C)[C@H](NC(=O)[C@H](CCCN)NC(=O)[C@H](CCCNC(=N)N)NC(=O)[C@@H]1CCCN1C(=O)[C@@H]1CCCN1C(=O)[C@H](CCCNC(=N)N)NC(=O)[C@@H]1CCCN1C(=O)[C@H](CCCNC(=N)N)NC(=O)[C@@H]1CCCN1C(=O)[C@H](CC(C)C)NC(=O)[C@H](Cc1ccc(O)cc1)NC(=O)[C@@H]1CCCN1C(=O)[C@@H]1CCCN1C(=O)[C@H](CCCCN)NC(=O)[C@H](CC(=O)O)NC(=O)[C@@H](N)C(C)C)C(=O)N[C@@H](Cc1ccc(O)cc1)C(=O)N[C@@H](CC(N)=O)C(=O)N[C@@H](CCCN)C(N)=O,,,mouse,"intraperitoneal, 160 mg/kg total, outcome: not toxic",tolerability,not toxic
Cc1ccc(Cn2cc(C(=O)NCCOCCO)c(=O)c3cc(C(=O)/C=C/c4ccc([N+](=O)[O-])o4)ccc32)cc1,Trypanosoma brucei brucei,parasite growth,,,IC50,80 nM
O=C(NCCCCCCN1CCCC2=CC3CC(CN4CCCCC34)C21)c1ccc(OC(F)(F)F)cc1 (stereo not drawn),HIV-1 NL4-3 Nanoluc,viral replication,MT-4,,IC50,> 20000 nM
CC(=O)c1ccc2c(c1)c(=O)c(C(=O)NCCOCCO)cn2Cc1ccc(Br)cc1,Trypanosoma brucei brucei,parasite growth,,,EC50,7000 nM
CC[C@H](C)[C@H](NC(=O)[C@H](CCCNC(=N)N)NC(=O)[C@@H]1CCCN1C(=O)[C@H](CCCNC(=N)N)NC(=O)[C@H](Cc1ccccc1)NC(=O)[C@H](Cc1c[nH]cn1)NC(=O)[C@H](CCCNC(=N)N)NC(=O)[C@H](CC(C)C)NC(=O)[C@H](CCCCN)NC(=O)CNC(=O)[C@H](CC(C)C)NC(=O)[C@H](Cc1ccccc1)NC(=O)[C@H](CCCNC(=N)N)NC(=O)CNC(=O)[C@H](Cc1ccccc1)NC(=O)[C@H](CCCNC(=N)N)NC(=O)CNC(=O)[C@H](CCCNC(=N)N)NC(=O)[C@H](CCC(N)=O)NC(=O)[C@@H](NC(=O)[C@@H](N)CC(C)C)[C@@H](C)CC)C(=O)N[C@@H](CCCCN)C(=O)N[C@@H](Cc1ccccc1)C(=O)N[C@@H](CCCCN)C(=O)NCC(=O)N[C@@H](CCCCN)C(=O)N[C@@H](C)C(=O)NCC(=O)N[C@@H](Cc1c[nH]c2ccccc12)C(=O)N[C@H](C(=O)N[C@H](C(=O)NCC(=O)O)C(C)C)[C@@H](C)O,Pseudomonas aeruginosa,,,,MIC,32 µM
Oc1c(Br)cc(Br)c2nc3ccccc3nc12,Staphylococcus aureus,biofilm eradication,MRSA,,MBEC,100 µM
NC(=O)c1cccc(NC(=O)C(NC(=O)c2ccc(Oc3ccccc3)cc2)c2ccc(OCc3ccccc3)cc2)c1 (stereo not drawn),dengue virus 2,viral replication,New Guinea C,,EC50,660 nM
CCC(=O)OC1C(=O)C2(C)C(O)CC3OCC3(OC(C)=O)C2C(OC(=O)c2cccc(OC(F)F)c2)C2(O)CC(OC(=O)C(O)C(C=C(C)C)NC(=O)OC(C)(C)C)C(C)=C1C2(C)C (stereo not drawn),MCF7,cytotoxicity,,,IC50,0.6 nM
CC[C@H](C)[C@H](NC(=O)[C@H](CCCCN)NC(=O)[C@H](CCCNC(=N)N)NC(=O)[C@H](CCCCN)NC(=O)[C@H](CC(C)C)NC(=O)[C@H](Cc1ccccc1)NC(=O)[C@H](CCC(=O)O)NC(=O)[C@H](CCCCN)NC(=O)[C@@H](NC(=O)[C@@H](NC(=O)[C@H](CCC(=O)O)NC(=O)[C@H](C)NC(=O)CNC(=O)[C@@H](N)CCCNC(=N)N)[C@@H](C)O)C(C)C)C(=O)N[C@@H](CCCNC(=N)N)C(=O)N[C@@H](CCC(=O)O)C(=O)N[C@@H](CCCNC(=N)N)C(=O)NCC(=O)N[C@H](C(=O)N[C@@H](CCCCN)C(=O)N[C@@H](C)C(=O)N[C@H](C(=O)N[C@H](C(=O)N[C@@H](C)C(=O)N[C@@H](Cc1c[nH]c2ccccc12)C(=O)O)[C@@H](C)CC)C(C)C)[C@@H](C)O,Pseudomonas aeruginosa,,,,MIC,64 µM

# A few entries again:
Compound,tested on,test,system,setting,quantity,result
COc1cc2c(cc1-n1ccnc1)C[C@H]1[C@H]3CCCC[C@@]23CCN1C,,,human liver microsomes,,intrinsic clearance,15.2 µL/min/mg protein
